Experimental data from different studies.
Each numbered part is a random draw from the data of one study; scales do not carry over between parts. Changes are numbered by the printed parent chain.

Set 1 — method: RNA Bind-n-Seq; form: RNA; medium: in vitro; tested at: 365 nM; reference: no-protein control; reading: higher = stronger binding; endpoint: RBNS enrichment (R)
Target: RNA binding protein fox-1 homolog 2, RRM domain, GST-SBP tag (RBFOX2, Homo sapiens, UniProt O43251-10, residues 100-194)
Setting: natural RNA segment, single round, ends assumed
Shared flanks, not repeated: GGGAGUUCUACAGUCCGACGAUC … UGGAAUUCUCGGGUGCCAA
Construct (chain): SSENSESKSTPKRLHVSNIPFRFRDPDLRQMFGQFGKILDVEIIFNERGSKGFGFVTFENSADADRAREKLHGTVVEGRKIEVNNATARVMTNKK
Sequence = GACCUGGGGUGGUGGGCAUCUGGCUGAACCUUGAGGAGGGAAAGCUUGCCUUCUAUUCAGUGGACAAUCAGGAGAAGCUUCUGUAUGAGUGUACCAUCUCUGCCUCCUCU; result = 0.553
Sequence = CUUACUUUCAUUGUAAAUAAGCCUGUCUUCCUAUCUGGAUUUUUUGUGUGCAUACAUAUUCUACUGAUUAACUACUUUUGCAGUUUUAAUCCUGUAUUAUUUCUUCUACU; result = 0.801
Sequence = AAAGAGGAGAAUUUCCCAGUCAGGUAGCCAGGAGAACAGUGCCACCCUGCGAUUGUGCCACCCUGUGAUUGUAUAGCGUGUUGUUUGUUCCAGUAAGCAGGCAGGCCCAG; result = 1.14
Sequence = GGAAGGGACUCUAGGAGGUGGCACUGGCCCCACAGCCUCUGGGAAGUGACAGAGAUGCCUCAGCUCUAGGCUCCUGCCCUUGCUGCUCCCACCUUCCAAGCCAGUUGCAG; result = 0.289
Sequence = UCUCAUUAAUGGCUGAUGCAAACUUAGUGAAUAAUAAUGAAUAUAAACAAUGCUCACCUCACCAAAAUUAUAUUAUUUGCAGUCAUUUGUGAUAACACAAAUUUUAUCGC; result = 1.02
Sequence = CUGGGUCCAAAGUGAUUUACAUAAAUUUAUAAUGAAAAUAAACAUGUAUAAAAUUUAAAAAAACAGACUCCCAUUUCUUAAAAACGGAUAAGUUUGAAAGGAAACUGCUA; result = 0.468
Sequence = CUCAUCCCUUGCCAAGCUUCUCUUAGGAUUGGUUUGCAGGGUAUAGAAUCCCAUCACGCGUGGGAAAAUAAAUGAAUACACUAAGAAAAGGGUGGCAUUUGAUUAAGUGA; result = 0.512
Sequence = CCAGGAUGACUUGGAUCUGGGAAGGGCGUGUCAUCUCAGUUUGUUCCUCCCGCACCCCUCCUCCCCCUGCUUCCUGUGGGAUCAGAGUAAGGCUCCUGUUGGCCAGUAGC; result = 1.22
Sequence = GGAUUGUAGGCAAACCCACCUGUGGCAUCACUGAAAAUAAAUUUGAUCAUACCUAAGAGGUUAGGAAAUGGUGCCAUUCCCACCUUAGAGUGCUACAUAGGUGCUUUGGG; result = 0.231
Sequence = CAAACUCCUUUCUUAUCUUGACCAUACUAAUAAAUAUAAUUUAUAAGCAUUGCCAUUGAAGGCUUAAUUGACUGAAAUUACUUUAACAUUUUGGAAAUUGUUGUAUAUCA; result = 0.667
Sequence = AUGGGUACCCUAUGAUCCCCCUCCCCUUCUCCUCCAGUAAAUACCUGGAAGAGGGAACCUGAAUCCCUGGGGGAGACAGAAGGGGCAGGGGCCACCAGCCUCCCCUUCUU; result = 0.261
Sequence = GGGAGGUCUAAUCUAGAUAUCGACUUGUUUUUGCACAUGUUUCCUCUAGUUCUUUGUUCAUAGCCCAGUAGACCUUGUUACUUCUGAGGUAAGUUAAGUAAGUUGAUUCG; result = 0.678

Set 2 — target: HLF, bZIP domain (human); method: DHFR protein complementation; medium: yeast; reference: wild-type JUN-FOS pair; reading: higher = stronger binding; endpoint: binding fitness
Setting: single substitutions, most at no-binding floor
Starting sequence: JUN, bZIP domain (human); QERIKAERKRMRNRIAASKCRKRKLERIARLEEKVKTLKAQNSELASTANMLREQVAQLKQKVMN; partner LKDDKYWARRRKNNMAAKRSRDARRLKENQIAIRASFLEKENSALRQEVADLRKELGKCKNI
Variant = A46I; result = -1.32 natural log
Variant = A40H; result = -1.35 natural log
Variant = K34P; result = -1.55 natural log
Variant = K36E; result = -1.41 natural log
Variant = Q41P; result = -1.52 natural log
Variant = A49D; result = -1.61 natural log
Variant = L59G; result = -1.36 natural log
Variant = L38H; result = -1.47 natural log
Variant = E54K; result = -1.22 natural log
Variant = S47Q; result = -1.41 natural log
Variant = S43Y; result = -1.48 natural log
Variant = I28R; result = -1.33 natural log
Variant = S47L; result = -1.39 natural log
Variant = T37Q; result = -1.34 natural log
Variant = L38E; result = -1.47 natural log
Variant = Q41N; result = -1.39 natural log
Variant = V56K; result = -1.51 natural log
Variant = E54Y; result = -1.4 natural log
Variant = L31S; result = -1.41 natural log
Variant = I28T; result = -1.48 natural log
Variant = S43C; result = -1.41 natural log
Variant = Q55E; result = -1.35 natural log
Variant = R53M; result = -1.43 natural log
Variant = R30W; result = -1.37 natural log
Variant = E32S; result = -1.42 natural log

Set 3 — method: RNA Bind-n-Seq; form: RNA; medium: in vitro; tested at: 1 µM; setting: whole 134-nt RNA, ends assumed; with: 150 mM KCl; reference: input library; reading: higher = stronger binding; endpoint: log2 enrichment
Target: Ras GTPase-activating protein-binding protein 1, C-terminal RGG region (G3BP1, Homo sapiens, UniProt Q13283)
Sequence of UniProt Q13283 (whole entry, looked up): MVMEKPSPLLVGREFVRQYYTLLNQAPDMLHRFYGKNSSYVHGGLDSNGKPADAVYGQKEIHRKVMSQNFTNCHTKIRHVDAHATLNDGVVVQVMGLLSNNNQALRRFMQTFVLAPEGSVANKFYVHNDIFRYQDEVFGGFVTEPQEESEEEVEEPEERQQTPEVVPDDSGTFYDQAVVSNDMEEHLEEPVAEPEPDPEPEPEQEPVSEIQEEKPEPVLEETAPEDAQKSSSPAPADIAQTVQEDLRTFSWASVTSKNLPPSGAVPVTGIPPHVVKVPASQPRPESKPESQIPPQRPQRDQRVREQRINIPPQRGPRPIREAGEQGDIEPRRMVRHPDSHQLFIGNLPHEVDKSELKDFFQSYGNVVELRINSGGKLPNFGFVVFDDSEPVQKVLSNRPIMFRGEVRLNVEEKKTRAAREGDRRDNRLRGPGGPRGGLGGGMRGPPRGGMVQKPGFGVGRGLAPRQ
Shared flanks, not repeated: GGGAGUUCUACAGUCCGACGAUC … UGGAAUUCUCGGGUGUCAAGG
Sequence = CUCAAGUCCUGUGCUACACAUCGUAUGUACCGAAUCGGUUGGGGUUGGGGUUGGAAAGUAUUAUGUUACGCCGUUCGGAUCUGCACUUCC; result = 0.118
Sequence = GCAGGCAGUAAAAACAAAUGGAAAUGCUUCGGAUAGUGGCAGGGGUGGGGGUUGCUAAGGAAAGGGUGGGAUGGGAGUGGGUAAAGAGUU; result = 2.65
Sequence = UCCUGUGCUACACAUCGUAUGUACCGAAUCGGGGAAAGGGGUUUUUUUGGGGUUUGGGGAAAGUAUUAUGUUACGCCGUUCGGAUCUGCA; result = 1.7
Sequence = AAGUCCUGUGCUACACAUCGUAUGUACCGAAUCGGUUUGGAAAAAAAGGAAAAAGGAAAGUAUUAUGUUACGCCGUUCGGAUCUGCACUU; result = -2.13
Sequence = UCAAGUCCUGUGCUACACAUCGUAUGUACCGAAUCGGAAAGGAAAGGAAAAAGGAAAGUAUUAUGUUACGCCGUUCGGAUCUGCACUUCC; result = -1.45
Sequence = GUCCUGUGCUACACAUCGUAUGUACCGAAUCGGGGUUUUGGGGUUUUGGGUUUUGGGGAAAGUAUUAUGUUACGCCGUUCGGAUCUGCAC; result = 0.796
Sequence = UGGGAGGUGGAUUUUGUUUAUUUUUUUAGCUCAUUUCCAGGGGUGGGAAUUUUUUUUUAAUAUGUGUCAUGAAUAAAGUUGUUUUUGAGA; result = 2.98
Sequence = GUCCUGUGCUACACAUCGUAUGUACCGAAUCGGGGAAAAGGGAAAAGGGGAAAAGGGGAAAGUAUUAUGUUACGCCGUUCGGAUCUGCAC; result = 0.134
Sequence = UCAAGUCCUGUGCUACACAUCGUAUGUACCGAAUCGGGAAAGGGUUUGGGAGGGAAAGUAUUAUGUUACGCCGUUCGGAUCUGCACUUCC; result = 1.99
Sequence = AAGUCCUGUGCUACACAUCGUAUGUACCGAAUCGGAAAGGGGAAAGGGGAAAGGGGAAAGUAUUAUGUUACGCCGUUCGGAUCUGCACUU; result = 0.112
Sequence = UGGGAGGUGGAUUUUGUUUAUUUUUUUAGCUCAUUUCCAGGGGUGGGAAUUUUUUUUUAAUAUGUGUCAUGAAUAAAGUUGUUUUUGUAA; result = 3.25
Sequence = ACCAUCCAGGUGGGCAUCUUUGGGAAGUGGGGCAAGGGGGGGAUAGGGAGGGGGGUAACACUUUGGGAACAGGUGGUCCCAGGUCGUUUC; result = -1.1
Sequence = AGUCCUGUGCUACACAUCGUAUGUACCGAAUCGGUUUUUGGGUUUUUGGUUUUUGGGGAAAGUAUUAUGUUACGCCGUUCGGAUCUGCAC; result = -1.38
Sequence = AGUCCUGUGCUACACAUCGUAUGUACCGAAUCGGUUUUUUGGUUUUUUGGUUUUUUGGAAAGUAUUAUGUUACGCCGUUCGGAUCUGCAC; result = -1.68

Set 4 — method: protein binding microarray; form: double-stranded DNA, one strand shown; medium: in vitro; tested at: not given; reference: not given; reading: higher = stronger binding; endpoint: E-score
Target: Histone acetyltransferase KAT6A, winged helix 1, GST fusion (KAT6A, Homo sapiens, UniProt Q92794, residues 1-85)
Setting: 8-mer, flanks averaged, mean of 2 arrays, mostly near background
Construct (chain): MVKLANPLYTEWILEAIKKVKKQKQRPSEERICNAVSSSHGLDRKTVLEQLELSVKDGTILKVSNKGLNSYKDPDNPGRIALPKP
Sequence = AGGTAATG; result = 0.00743
Sequence = AAATCTCA; result = -0.204
Sequence = CGAGTTGC; result = -0.0323
Sequence = GGCTCGAC; result = 0.0609
Sequence = CTCGAAAC; result = -0.149
Sequence = AAGCATGA; result = 0.0142
Sequence = TAAGAACA; result = -0.0632
Sequence = CTACGTGC; result = 0.00666
Sequence = ACTGGCGA; result = -0.0806
Sequence = CGTAAGTA; result = 0.0844
Sequence = CTATCCAC; result = -0.0219
Sequence = CGTCGAAG; result = 0.0426
Sequence = CTATTGCC; result = 0.0505
Sequence = CCCTCTTA; result = -0.0502
Sequence = CGGCCCAA; result = 0.139
Sequence = CGGCAATC; result = 0.34
Sequence = GCTGCGTA; result = 0.118

Set 5 — method: universal PBM; form: double-stranded DNA, one strand shown; medium: in vitro; tested at: 600 nM; reading: higher = stronger binding; endpoint: E-score
Target: Sal-like protein 4, full length isoform A (SALL4, Homo sapiens, UniProt Q9UJQ4, residues 1-1053)
Sequence of UniProt Q9UJQ4 (whole entry, looked up): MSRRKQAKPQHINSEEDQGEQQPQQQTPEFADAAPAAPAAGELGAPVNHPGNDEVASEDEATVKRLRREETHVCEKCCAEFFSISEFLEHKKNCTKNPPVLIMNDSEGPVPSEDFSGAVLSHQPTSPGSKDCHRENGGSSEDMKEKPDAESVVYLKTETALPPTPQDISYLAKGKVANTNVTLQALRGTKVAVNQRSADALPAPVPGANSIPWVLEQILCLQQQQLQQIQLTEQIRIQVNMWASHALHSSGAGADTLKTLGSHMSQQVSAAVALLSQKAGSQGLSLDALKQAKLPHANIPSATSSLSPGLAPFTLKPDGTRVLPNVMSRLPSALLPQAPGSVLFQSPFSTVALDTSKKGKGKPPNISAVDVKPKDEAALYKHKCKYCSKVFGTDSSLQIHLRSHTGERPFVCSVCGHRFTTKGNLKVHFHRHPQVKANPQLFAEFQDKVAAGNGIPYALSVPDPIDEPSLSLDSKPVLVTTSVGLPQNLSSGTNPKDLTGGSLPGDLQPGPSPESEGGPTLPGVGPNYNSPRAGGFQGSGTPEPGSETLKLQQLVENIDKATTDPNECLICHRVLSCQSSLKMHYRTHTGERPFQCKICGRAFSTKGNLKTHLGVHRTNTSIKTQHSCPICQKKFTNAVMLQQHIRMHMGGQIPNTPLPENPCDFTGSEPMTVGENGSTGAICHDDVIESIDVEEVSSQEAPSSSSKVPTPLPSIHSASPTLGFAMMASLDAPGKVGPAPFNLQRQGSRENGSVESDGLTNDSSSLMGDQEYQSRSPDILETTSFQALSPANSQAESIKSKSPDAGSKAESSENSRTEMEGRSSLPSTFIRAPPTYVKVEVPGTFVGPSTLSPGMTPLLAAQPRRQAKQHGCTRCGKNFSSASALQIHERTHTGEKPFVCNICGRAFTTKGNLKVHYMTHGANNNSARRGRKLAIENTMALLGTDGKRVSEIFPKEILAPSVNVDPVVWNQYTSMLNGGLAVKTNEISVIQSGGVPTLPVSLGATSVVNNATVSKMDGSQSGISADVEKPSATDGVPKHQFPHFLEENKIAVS
Setting: 8-mer, flanks averaged, mean of replicates
Sequence = ACGGCATG; result = -0.203
Sequence = CTAGAATC; result = -0.0128
Sequence = GACACTAC; result = -0.0507
Sequence = GCACTCTA; result = -0.0395
Sequence = CGGGATGA; result = -0.148
Sequence = GCTAAGGA; result = -0.273
Sequence = CTGGGAAC; result = -0.261
Sequence = ATGTAAAT; result = 0.249
Sequence = TAGATCGA; result = 0.0551
Sequence = GAACACGC; result = -0.149
Sequence = CCACTTCG; result = -0.142
Sequence = CATACTCC; result = 0.0829
Sequence = AGCGTCCC; result = -0.164
Sequence = GTTTTACA; result = 0.103
Sequence = CGAGCGAG; result = -0.0885
Sequence = GGCAAACC; result = -0.205
Sequence = ATGGGTGC; result = -0.0262
Sequence = AGGCCGCG; result = -0.216
Sequence = AATGCGCG; result = -0.102
Sequence = ACTGGCCC; result = -0.18
Sequence = ACTGGGCC; result = -0.308
Sequence = AATTCTCA; result = 0.25
Sequence = AACGAGGT; result = -0.205
Sequence = AATTAAGA; result = 0.282
Sequence = GCCCACAC; result = -0.2

Repeated from above (set 5):
Sequence = CATACTCC; result = 0.0829
Sequence = AGCGTCCC; result = -0.164
Sequence = GTTTTACA; result = 0.103
Sequence = CGAGCGAG; result = -0.0885
Sequence = GGCAAACC; result = -0.205
Sequence = ATGGGTGC; result = -0.0262
Sequence = AGGCCGCG; result = -0.216
Sequence = AATGCGCG; result = -0.102
